Measured values collected from several papers.
Target: Calcium/calmodulin-dependent protein kinase type 1 (CAMK1, Homo sapiens, UniProt Q14012)

SMILES | test | conditions | scale | endpoint | result
C=CC(=O)N1Cc2nc(-c3cc(-c4cc(Cl)cnc4Cl)c(F)cc3F)n(-c3ccncn3)c2C1 | cell-free assay | 1 µM |  | inhibition | -0.3%
CN1CC[C@@H](COc2cnc(C#N)cc2-c2ccn3nc(NC(=O)C4CC4)cc3c2)C1 | enzyme activity, inhibitor | 1 µM |  | inhibition | 7%
CNC(=O)C[C@H](Cc1ccc(C#N)cc1)NC(=O)c1cc(-c2ccc(CN[C@H](C)c3ccc(C)cc3)o2)ccc1Cl | enzyme activity, inhibitor | 1 µM |  | activity vs control | 126%
C=CC(=O)Nc1cccc(-c2cnc3[nH]cc(C(=O)NC(C)(C)C)c3n2)c1 | enzyme activity, inhibitor | 0.1 µM |  | inhibition | 4%
NC(=O)[C@@H](O)C[C@H]1CCc2sc3ncnc(O[C@H]4CC[C@H](N5CCOCC5)CC4)c3c21 | enzyme activity, inhibitor | 10 µM |  | inhibition | 18%
Cc1cccc(-c2ccc3nc(NC(=O)C4CCCCC4)nn3c2)c1 | enzyme activity, Dundee kinase panel | 10 µM |  | remaining activity | 78%
Cc1cccc(O[C@H]2CCC[C@@H](C(C)CNCc3ccncc3)C2)c1 (relative stereo) | enzyme activity | 1 µM |  | inhibition | 1%
Nc1ncc(-c2cc(-c3cnn(CC(F)(F)F)c3)ncc2F)nc1C(=O)NC1CNCC(F)C1 (stereo not shown) | enzyme activity | 1 µM | baseline: DMSO control | remaining activity | 74.5%
COc1c(OCCCN2CCOCC2)ccc2c1N=C(NC(=O)c1cnc(N)nc1)N1CCN=C21 | kinase activity, inhibitor | 1 µM | baseline: untreated control | remaining activity | 122%
COc1cc(Nc2nccc(-c3cnn4nc(OC)ccc34)n2)cc(C(F)(F)F)c1 | binding, competition with immobilised ligand | 1 µM |  | remaining binding | 71%
C=CC(=O)N1CCCC(n2c(=O)c3ncccc3n(Cc3ccc(Oc4ccccc4)cc3)c2=O)C1 (stereo not shown) | cell-free assay, competition with immobilised ligand | 1 µM |  | remaining binding | 100%
c1ccc2c(Nc3cc(C4CCC4)[nH]n3)nc(Nc3ccc4nc[nH]c4c3)nc2c1 | enzyme activity, inhibitor | 0.25 µM |  | remaining activity | 20%
CCN1CCN(Cc2ccc(C(=O)Nc3ccc(C)c(NCc4cnc5[nH]ccc5c4OC)c3)cc2C(F)(F)F)CC1 | binding, competition with immobilised ligand | 1 µM |  | remaining binding | 95%
CNC1C[S+]2CC[S+]3CC[S+](C1)[Ru-4]321([N]=C=S)[n]2c3ccc(OC)cc3c3c4c(c5cc(F)c[n+]1c5c32)C(=O)NC4=O (stereo not shown) | KinomeScan | 0.1 µM | baseline: untreated | remaining binding | 93%
Cc1cccc(-c2ccc3nc(NC(=O)C4CCOCC4)nn3c2)c1 | enzyme activity, Dundee kinase panel | 10 µM |  | remaining activity | 83%
CCn1cc(C(=O)O)c(=O)c2c(N)c(F)c(NC3CCCCC3)cc21 | kinase activity | 0.1 µM, added: ATP at Km |  | inhibition | -22%
C=CC(=O)N1CCc2ccc(-n3c(=O)ccc4cnc5ccc(-c6cnn(C)c6)cc5c43)cc21 | KINOMEscan | 1 µM | baseline: DMSO control | remaining binding | 100%
C[C@H]1CN(C(=O)c2cn(-c3ccnc(N)n3)c3cc(C#CC4(O)CCCCC4)ccc23)CCN1 | enzyme activity, inhibitor | 1 µM |  | inhibition | 90%
Nc1ncc2c(n1)-c1c([nH]c3ccc(C4=CCOCC4)cc13)CCC2 | binding, competition with immobilised ligand | 1 µM |  | remaining binding | 88%

For quick reference, copied from above:
SMILES | test | conditions | scale | endpoint | result
Cc1cccc(O[C@H]2CCC[C@@H](C(C)CNCc3ccncc3)C2)c1 (relative stereo) | enzyme activity | 1 µM |  | inhibition | 1%
